Assay results collected from several papers.
SIK1: Serine/threonine-protein kinase SIK1 (SIK1, Homo sapiens, UniProt P57059)
Sequence of UniProt P42336 (whole entry, unmodified, looked up): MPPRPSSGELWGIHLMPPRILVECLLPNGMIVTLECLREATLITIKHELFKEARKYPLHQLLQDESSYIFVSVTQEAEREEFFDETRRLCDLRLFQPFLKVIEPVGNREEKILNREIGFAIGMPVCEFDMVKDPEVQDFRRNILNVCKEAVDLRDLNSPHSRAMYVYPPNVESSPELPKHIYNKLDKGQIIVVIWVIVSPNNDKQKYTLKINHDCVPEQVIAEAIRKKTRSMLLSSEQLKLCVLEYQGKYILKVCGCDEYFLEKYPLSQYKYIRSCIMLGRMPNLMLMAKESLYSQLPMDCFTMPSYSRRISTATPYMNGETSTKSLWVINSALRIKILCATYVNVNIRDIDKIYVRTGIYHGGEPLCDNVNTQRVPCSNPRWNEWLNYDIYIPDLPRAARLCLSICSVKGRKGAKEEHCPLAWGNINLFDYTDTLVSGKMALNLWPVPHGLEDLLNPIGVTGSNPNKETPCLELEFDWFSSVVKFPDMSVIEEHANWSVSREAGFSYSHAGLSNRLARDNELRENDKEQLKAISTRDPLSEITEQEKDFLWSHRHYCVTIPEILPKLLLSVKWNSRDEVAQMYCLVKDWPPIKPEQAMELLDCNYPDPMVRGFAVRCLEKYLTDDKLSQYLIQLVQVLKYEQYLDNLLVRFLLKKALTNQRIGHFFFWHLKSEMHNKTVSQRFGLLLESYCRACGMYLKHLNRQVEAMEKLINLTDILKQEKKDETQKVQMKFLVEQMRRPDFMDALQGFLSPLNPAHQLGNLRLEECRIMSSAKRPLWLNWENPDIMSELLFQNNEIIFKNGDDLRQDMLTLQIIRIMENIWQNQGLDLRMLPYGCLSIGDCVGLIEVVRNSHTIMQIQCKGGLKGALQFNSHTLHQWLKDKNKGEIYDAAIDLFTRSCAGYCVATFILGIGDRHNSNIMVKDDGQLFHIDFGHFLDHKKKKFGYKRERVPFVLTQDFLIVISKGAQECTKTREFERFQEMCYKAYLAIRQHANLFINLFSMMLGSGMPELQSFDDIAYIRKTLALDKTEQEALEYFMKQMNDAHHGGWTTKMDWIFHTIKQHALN
Sequence of UniProt P57059 (whole entry, looked up): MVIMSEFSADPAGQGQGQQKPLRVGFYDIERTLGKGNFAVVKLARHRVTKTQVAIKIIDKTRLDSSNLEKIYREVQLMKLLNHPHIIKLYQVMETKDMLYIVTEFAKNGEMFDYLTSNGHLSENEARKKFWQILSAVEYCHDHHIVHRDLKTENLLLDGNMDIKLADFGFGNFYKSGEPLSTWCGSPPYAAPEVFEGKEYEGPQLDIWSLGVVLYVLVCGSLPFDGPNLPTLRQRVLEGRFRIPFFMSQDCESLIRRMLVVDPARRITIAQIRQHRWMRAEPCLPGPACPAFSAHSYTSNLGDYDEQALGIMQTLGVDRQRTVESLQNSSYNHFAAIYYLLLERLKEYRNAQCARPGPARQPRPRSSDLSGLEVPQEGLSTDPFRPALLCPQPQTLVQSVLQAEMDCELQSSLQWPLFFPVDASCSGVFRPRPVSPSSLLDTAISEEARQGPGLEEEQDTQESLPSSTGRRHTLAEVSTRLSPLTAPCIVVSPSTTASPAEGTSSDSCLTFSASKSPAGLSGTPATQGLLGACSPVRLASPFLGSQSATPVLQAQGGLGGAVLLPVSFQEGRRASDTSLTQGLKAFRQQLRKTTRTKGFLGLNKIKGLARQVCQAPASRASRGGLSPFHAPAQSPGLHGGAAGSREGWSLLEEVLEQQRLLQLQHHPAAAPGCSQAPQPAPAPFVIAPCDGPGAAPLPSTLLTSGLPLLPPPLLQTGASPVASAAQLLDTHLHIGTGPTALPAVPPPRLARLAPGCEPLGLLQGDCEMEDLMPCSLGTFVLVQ
Sequence of UniProt P11802 (whole entry, looked up): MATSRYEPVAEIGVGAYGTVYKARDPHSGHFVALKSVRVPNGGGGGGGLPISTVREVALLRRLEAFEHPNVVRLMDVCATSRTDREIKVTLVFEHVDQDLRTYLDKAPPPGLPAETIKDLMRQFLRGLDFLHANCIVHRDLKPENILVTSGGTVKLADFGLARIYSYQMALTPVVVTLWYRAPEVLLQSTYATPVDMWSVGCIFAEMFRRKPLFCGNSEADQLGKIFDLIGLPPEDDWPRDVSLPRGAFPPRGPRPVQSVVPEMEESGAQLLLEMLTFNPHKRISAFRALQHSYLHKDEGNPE
Sequence of UniProt Q56UN5 (whole entry, looked up): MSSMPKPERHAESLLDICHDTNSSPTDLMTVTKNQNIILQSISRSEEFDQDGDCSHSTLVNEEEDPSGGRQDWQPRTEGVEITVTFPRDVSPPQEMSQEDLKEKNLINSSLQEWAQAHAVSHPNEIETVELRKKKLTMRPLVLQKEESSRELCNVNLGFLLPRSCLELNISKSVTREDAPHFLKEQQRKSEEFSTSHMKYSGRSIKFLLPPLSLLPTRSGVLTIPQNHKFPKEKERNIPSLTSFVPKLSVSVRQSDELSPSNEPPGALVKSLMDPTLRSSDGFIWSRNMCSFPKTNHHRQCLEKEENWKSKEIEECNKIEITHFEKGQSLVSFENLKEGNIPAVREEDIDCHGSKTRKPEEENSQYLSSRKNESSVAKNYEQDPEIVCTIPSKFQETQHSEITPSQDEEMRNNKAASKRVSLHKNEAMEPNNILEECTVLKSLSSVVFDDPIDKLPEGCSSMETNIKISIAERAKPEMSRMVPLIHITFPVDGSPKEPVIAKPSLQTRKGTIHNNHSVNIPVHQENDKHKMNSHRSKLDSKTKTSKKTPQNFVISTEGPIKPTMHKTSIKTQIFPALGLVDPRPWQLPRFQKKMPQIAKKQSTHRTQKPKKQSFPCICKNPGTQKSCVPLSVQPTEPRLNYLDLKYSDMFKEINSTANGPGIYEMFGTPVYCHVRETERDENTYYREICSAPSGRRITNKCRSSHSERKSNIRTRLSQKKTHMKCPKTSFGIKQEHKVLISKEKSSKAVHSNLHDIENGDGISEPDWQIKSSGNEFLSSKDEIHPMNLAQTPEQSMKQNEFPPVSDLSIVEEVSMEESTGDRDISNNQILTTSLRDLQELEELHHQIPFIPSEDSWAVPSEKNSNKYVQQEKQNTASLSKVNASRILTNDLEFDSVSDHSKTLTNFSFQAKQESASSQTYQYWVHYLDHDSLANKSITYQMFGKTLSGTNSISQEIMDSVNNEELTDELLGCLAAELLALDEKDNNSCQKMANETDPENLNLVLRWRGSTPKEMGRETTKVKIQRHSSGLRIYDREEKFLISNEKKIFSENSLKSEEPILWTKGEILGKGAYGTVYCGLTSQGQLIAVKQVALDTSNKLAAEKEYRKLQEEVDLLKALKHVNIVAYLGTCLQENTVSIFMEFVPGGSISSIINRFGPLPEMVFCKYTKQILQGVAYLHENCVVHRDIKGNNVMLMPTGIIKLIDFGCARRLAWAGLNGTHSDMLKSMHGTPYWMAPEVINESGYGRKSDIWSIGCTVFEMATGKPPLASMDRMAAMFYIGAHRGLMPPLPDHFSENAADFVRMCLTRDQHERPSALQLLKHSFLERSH
Sequence of UniProt Q13882 (whole entry, looked up): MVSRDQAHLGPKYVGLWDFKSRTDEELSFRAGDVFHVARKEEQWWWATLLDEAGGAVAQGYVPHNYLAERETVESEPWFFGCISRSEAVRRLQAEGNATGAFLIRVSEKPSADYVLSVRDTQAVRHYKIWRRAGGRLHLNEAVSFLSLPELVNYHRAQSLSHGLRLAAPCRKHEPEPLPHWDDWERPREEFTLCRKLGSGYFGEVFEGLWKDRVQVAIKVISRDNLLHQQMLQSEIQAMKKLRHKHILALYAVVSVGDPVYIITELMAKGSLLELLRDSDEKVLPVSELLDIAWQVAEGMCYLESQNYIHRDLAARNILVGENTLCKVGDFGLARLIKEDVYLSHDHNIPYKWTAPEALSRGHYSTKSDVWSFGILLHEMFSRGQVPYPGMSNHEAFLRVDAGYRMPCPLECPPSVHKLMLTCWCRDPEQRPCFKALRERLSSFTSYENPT
Sequence of UniProt Q9UQ88 (whole entry, looked up): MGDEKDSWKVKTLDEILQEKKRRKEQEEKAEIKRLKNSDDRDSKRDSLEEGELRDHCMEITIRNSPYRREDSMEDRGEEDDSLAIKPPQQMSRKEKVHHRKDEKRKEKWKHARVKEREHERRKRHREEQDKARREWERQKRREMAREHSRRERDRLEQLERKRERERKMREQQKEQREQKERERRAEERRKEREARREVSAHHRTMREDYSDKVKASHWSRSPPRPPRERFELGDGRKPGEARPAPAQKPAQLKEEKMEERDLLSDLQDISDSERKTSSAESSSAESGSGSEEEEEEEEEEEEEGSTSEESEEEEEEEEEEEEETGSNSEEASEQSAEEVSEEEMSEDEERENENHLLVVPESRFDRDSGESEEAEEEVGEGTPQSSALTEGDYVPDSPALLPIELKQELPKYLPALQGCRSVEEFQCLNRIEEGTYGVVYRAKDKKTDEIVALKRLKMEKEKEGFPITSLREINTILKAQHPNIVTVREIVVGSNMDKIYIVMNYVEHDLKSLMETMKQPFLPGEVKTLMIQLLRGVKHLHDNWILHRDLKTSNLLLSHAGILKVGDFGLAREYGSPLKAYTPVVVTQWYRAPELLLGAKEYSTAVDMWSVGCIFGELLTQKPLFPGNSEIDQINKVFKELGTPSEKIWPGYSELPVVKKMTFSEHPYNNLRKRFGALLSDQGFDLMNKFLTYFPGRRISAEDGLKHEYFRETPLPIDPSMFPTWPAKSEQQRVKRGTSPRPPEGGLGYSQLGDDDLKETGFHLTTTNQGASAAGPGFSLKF

SMILES = FC(F)(F)Oc1cccc(-c2cnc3ccc(-c4ccncc4)nn23)c1; target or system = MAP3K19 (Homo sapiens, UniProt Q56UN5); read-out = binding; method = competition with immobilised ligand; concentration = 5 µM; measurement = remaining binding; result = 12%
SMILES = Nc1ncnc2occ(-c3ccc(NC(=O)Nc4cc(C(F)(F)F)ccc4F)cc3)c12; target or system = FLT3 (Homo sapiens, UniProt P36888, D835V/ITD); read-out = cell-free assay; action = inhibitor; concentration = 20 µM; measurement = remaining signal; result = 4.8%
SMILES = F[C@@H]1CCN(c2nccc(-c3cnn4ncccc34)n2)C1; target or system = CDPK1 (Plasmodium falciparum, UniProt P62344); read-out = binding; concentration = 1 µM; measurement = remaining binding; result = 100%
SMILES = CCCCC(=O)Nc1ccc(-c2ccc3ncn(CCC)c(=O)c3c2)cn1; target or system = SRPK1 (Homo sapiens, UniProt Q96SB4); read-out = binding; method = competition with immobilised ligand; concentration = 0.5 µM; measurement = remaining binding; result = 100%
SMILES = CN(C)c1ncc(F)c(-c2cnn3ncccc23)n1; target or system = SIK1; read-out = binding; concentration = 1 µM; measurement = remaining binding; result = 100%
SMILES = COc1ccc2oc(-c3ccc4nc(N)oc4c3)c/c(=N\c3ccccc3NC(=O)CCN)c2c1; target or system = PTK6 (Homo sapiens, UniProt Q13882); read-out = binding; concentration = 1 µM; measurement = remaining binding; result = 101%
SMILES = C[C@@H](c1ccc(-n2cnc3c(N)ncnc32)cc1)N1CCc2nn(C)c(Cc3ccccc3)c2C1=O; target or system = DDR2 (Homo sapiens, UniProt Q16832); read-out = binding; method = competition with immobilised ligand; concentration = 0.1 µM; measurement = remaining binding; result = 8.2%
SMILES = COc1cc(-c2cncc3c2CN(C)Cc2cc(N4CCNCC4)ccc2-3)cc(OC)c1OC; target or system = NIM1K (Homo sapiens, UniProt Q8IY84); read-out = enzyme activity; action = inhibitor; concentration = 1 µM; measurement = remaining activity; result = 108%
SMILES = C=CC(=O)N1CCC(COCC(=O)N2CCN(c3nc(-c4cnc(N)nc4C(F)F)nc(N4CCOC[C@@H]4C)n3)CC2)CC1; target or system = CDK4 (Homo sapiens, UniProt P11802); read-out = binding; method = competition with immobilised ligand; concentration = 1 µM; measurement = remaining binding; result = 100%
SMILES = CNc1ncc2c(/C=C/C(=O)N3CCC(OC)CC3)nn(Cc3cccc(C(F)(F)F)c3)c2n1; target or system = NEK11 (Homo sapiens, UniProt Q8NG66); read-out = enzyme activity; action = inhibitor; method = radiometric; concentration = 1 µM; measurement = remaining activity; result = 100%
SMILES = C1=C/COCc2cc(ccc2OCCN2CCCC2)Nc2nccc(n2)-c2cccc(c2)COC/1; target or system = PIK3CA (Homo sapiens, UniProt P42336, H1047Y); read-out = binding; concentration = 0.1 µM; measurement = remaining binding; result = 53%
SMILES = C[C@]1(O)CCCN(c2nc(Nc3ccc(S(=O)(=O)N[C@H]4CC[C@H](CN5CCN(c6ccc(C7CCC(=O)NC7=O)cc6F)CC5)CC4)cc3F)ncc2C(F)(F)F)C1 (some centres unmarked); target or system = TAOK3 (Homo sapiens, UniProt Q9H2K8); read-out = binding; method = competition with immobilised ligand; concentration = 1 µM; measurement = remaining binding; result = 61%
SMILES = O=C1O[C@H]([C@@H](O)CO)C(O)=C1O; read-out = DPPH scavenging; method = absorbance; concentration = 90 µg/mL; measurement = inhibition; result = 57%
SMILES = N[C@@H]1CCN(c2nccc(-c3cnn4ncccc34)n2)C1; target or system = SIK1; read-out = binding; concentration = 1 µM; measurement = remaining binding; result = 100%
SMILES = Cc1cc([C@@H](C)Nc2ccccc2C(=O)O)c2nc(N3CCC(F)(F)CC3)c(C#N)c(=O)n2c1; target or system = PIK3CA (Homo sapiens, UniProt P42336); read-out = binding; method = competition with immobilised ligand; concentration = 1 µM; measurement = remaining binding; result = 100%
SMILES = CCCN(O)N=Nc1ccc(S(=O)(=O)Nc2cc(C)on2)cc1; read-out = DPPH scavenging; method = absorbance; concentration = 240 µg/mL; measurement = inhibition; result = 23.9%
SMILES = CN(CCCC(F)(F)F)c1nccc(-c2cnn3ncccc23)n1; target or system = CDK11A (Homo sapiens, UniProt Q9UQ88); read-out = binding; concentration = 1 µM; measurement = remaining binding; result = 100%

Some of these lines once more:
SMILES = C[C@]1(O)CCCN(c2nc(Nc3ccc(S(=O)(=O)N[C@H]4CC[C@H](CN5CCN(c6ccc(C7CCC(=O)NC7=O)cc6F)CC5)CC4)cc3F)ncc2C(F)(F)F)C1 (some centres unmarked); target or system = TAOK3 (Homo sapiens, UniProt Q9H2K8); read-out = binding; method = competition with immobilised ligand; concentration = 1 µM; measurement = remaining binding; result = 61%
SMILES = O=C1O[C@H]([C@@H](O)CO)C(O)=C1O; read-out = DPPH scavenging; method = absorbance; concentration = 90 µg/mL; measurement = inhibition; result = 57%
